Assay results of several laboratories.
Parts stem from different laboratories: compare values within a part only.

Block 1 — method: protein binding microarray; molecule type: double-stranded DNA, one strand shown; matrix: in vitro; concentration: not given; baseline: not given; reading: higher = stronger binding; endpoint: E-score
Target: Histone acetyltransferase KAT6A, winged helix 2, GST fusion (KAT6A, Homo sapiens, UniProt Q92794, residues 85-181)
Notes: 8-mer, flanks averaged, mean of 2 arrays, mostly near background
Residues (chain): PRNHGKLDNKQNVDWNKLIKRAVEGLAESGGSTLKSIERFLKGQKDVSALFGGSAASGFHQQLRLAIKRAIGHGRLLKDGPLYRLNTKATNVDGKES
ACCTCAGG: 0.0352
GCTGCTCC: 0.0783
GCTATTGA: -0.148
GGGAAAAC: -0.00843

Block 2 — method: DNA-protein interaction ELISA; molecule type: double-stranded DNA, one strand shown; matrix: in vitro, bacterial lysate; concentration: not given; notes: whole dsDNA probe, crude lysate protein; baseline: highest signal in screen; reading: higher = stronger binding; endpoint: relative absorbance
Target: Probable WRKY transcription factor 33, C-terminal DNA-binding domain (WRKY33, Arabidopsis thaliana, UniProt Q8S8P5, residues 346-449)
Construct (chain): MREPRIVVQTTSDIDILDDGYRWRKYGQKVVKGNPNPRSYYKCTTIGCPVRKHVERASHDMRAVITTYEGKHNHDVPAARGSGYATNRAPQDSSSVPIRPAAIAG
AAAAAATCGCGTCCGTGCTCAATCCAAAAA: 31.7 % of maximum
AAAAAACCGACCTGCACGTCGCTGCTAAAA: 40.8 % of maximum
AAAAAAGAGTGGTTTATTAATGTATAAAAA: 44.8 % of maximum

Other studies, line by line
UNK zinc fingers 1-6, GST-SBP tag: RING finger protein unkempt homolog, zinc fingers 1-6, GST-SBP tag (UNK, Homo sapiens, UniProt Q9C0B0, residues 30-357)
UniProt Q9C0B0, sequence (30-357, looked up): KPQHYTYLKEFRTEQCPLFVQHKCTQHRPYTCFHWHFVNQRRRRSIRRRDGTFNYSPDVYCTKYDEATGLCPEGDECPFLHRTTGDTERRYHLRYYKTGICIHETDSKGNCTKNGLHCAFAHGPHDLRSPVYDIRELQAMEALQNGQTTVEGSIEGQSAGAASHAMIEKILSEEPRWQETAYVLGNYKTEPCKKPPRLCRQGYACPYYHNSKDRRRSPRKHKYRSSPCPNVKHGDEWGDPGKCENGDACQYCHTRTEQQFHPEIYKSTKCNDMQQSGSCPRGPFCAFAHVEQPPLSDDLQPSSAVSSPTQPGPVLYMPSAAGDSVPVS
GGGAGUUCUACAGUCCGACGAUCCAGAAACUGGAAGAGAUGGUCACCCGCUUAGAUCAAGAAGUAGCUGAAGUUGAUAAAAACACCGAACUUUUGAAAAAGAAGGAUGAAGAACUAAGUUCUGCUCUGGAGAAAAUGGAAAAUCAACAGAGGAUUGAGCAUCA  bound/input enrichment (UNK zinc fingers 1-6, GST-SBP tag; RNA Bind-n-Seq; RNA, in vitro; not given, RNA with constant flanks, ends assumed; baseline: input RNA pool, higher = stronger binding): 1.61 ratio
PhoQ, residues 284 288 289 292 302 303 SCCLKL  fold induction (PhoP, residues 12 14 15 18 19 LWHVM (Escherichia coli, UniProt P23836); Sort-seq, measured: YFP reporter; E. coli; PhoQ-PhoP variant library, with: 10 µM Mg2+; baseline: high Mg2+ state, higher = stronger signaling): 1.94
GGGAGUUCUACAGUCCGACGAUCAUACAGGCAGCCCAUGAUGCCGUGGCACAGGAAGGCCAAUGUCGGGUAGAUGACAAGGUGAAUUUCCAUUUUAUUCUGUUUAACAACGUGGAUGGCCACCUCUAUGAACUUGAUGGACGACAACAGAGGAUUGAGCAUCA  bound/input enrichment (UNK zinc fingers 1-6, GST-SBP tag; RNA Bind-n-Seq; RNA, in vitro; not given, RNA with constant flanks, human and mouse sites, ends assumed; baseline: input RNA pool, higher = stronger binding): 0.226 ratio
GGGAGUUCUACAGUCCGACGAUCGCUGCCAUGGCUGCAAGACCUCAUUCAAUUGAUGGGAGAGUAGUUGAGCCAAAACGUGCUGCCGCAAGAGAGGAAUCUGGAAAACCAGGGGCUCAUGUAACUGUGAAGAAGCUGUUUGUUCAACAGAGGAUUGAGCAUCA  bound/input enrichment (UNK zinc fingers 1-6, GST-SBP tag; RNA Bind-n-Seq; RNA, in vitro; not given, RNA with constant flanks, ends assumed; baseline: input RNA pool, higher = stronger binding): 0.178 ratio
